Published values from different studies.
A part holds a random share of what one study measured. Several values in a cell are separate wells, animals, samples, runs or records.
UniProt Q9Y6R4, sequence (whole entry, looked up): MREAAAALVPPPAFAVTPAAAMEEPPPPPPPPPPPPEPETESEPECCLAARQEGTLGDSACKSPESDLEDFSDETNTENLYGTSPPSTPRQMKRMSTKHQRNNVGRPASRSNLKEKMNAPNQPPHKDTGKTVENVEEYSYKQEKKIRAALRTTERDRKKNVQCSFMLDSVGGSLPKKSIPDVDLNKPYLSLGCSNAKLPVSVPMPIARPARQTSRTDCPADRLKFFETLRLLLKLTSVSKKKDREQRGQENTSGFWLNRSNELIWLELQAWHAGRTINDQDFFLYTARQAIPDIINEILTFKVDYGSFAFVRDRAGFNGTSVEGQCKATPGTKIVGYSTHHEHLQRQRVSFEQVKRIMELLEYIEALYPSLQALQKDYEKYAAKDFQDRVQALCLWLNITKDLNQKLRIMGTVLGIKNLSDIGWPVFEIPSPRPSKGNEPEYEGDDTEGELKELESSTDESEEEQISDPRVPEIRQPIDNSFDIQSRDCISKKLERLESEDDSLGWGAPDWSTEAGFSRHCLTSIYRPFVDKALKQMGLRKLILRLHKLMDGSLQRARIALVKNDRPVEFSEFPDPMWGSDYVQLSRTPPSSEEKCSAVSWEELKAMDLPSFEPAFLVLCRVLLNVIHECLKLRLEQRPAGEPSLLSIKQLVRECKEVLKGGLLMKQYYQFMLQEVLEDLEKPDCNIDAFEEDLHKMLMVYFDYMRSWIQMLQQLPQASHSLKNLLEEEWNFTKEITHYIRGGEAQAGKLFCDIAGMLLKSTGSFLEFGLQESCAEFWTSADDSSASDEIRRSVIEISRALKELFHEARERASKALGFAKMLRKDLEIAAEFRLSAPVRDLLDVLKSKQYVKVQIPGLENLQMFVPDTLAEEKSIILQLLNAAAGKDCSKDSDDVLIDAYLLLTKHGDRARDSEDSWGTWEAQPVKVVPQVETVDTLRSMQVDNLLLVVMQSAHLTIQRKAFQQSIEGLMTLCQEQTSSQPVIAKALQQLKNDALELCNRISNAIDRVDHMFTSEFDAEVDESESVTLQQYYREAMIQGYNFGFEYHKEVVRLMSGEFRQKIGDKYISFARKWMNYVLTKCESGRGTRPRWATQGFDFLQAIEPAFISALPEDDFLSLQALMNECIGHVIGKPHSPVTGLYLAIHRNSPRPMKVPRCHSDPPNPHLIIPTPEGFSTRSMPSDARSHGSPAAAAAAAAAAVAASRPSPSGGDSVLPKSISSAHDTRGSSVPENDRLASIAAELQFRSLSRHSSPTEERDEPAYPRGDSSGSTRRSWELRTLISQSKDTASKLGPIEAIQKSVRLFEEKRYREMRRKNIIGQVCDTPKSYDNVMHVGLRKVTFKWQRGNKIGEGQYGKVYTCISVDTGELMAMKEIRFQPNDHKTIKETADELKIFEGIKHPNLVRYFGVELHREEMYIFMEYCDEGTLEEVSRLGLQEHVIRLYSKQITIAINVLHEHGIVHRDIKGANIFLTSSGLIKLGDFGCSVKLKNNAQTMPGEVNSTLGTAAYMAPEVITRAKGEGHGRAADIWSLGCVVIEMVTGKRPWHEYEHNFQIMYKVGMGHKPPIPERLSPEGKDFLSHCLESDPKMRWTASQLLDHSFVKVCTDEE

Sample 1
Target: Calcium/calmodulin-dependent protein kinase type II subunit alpha (CAMK2A, Homo sapiens, UniProt Q9UQM7)
UniProt Q9UQM7, sequence (whole entry, looked up): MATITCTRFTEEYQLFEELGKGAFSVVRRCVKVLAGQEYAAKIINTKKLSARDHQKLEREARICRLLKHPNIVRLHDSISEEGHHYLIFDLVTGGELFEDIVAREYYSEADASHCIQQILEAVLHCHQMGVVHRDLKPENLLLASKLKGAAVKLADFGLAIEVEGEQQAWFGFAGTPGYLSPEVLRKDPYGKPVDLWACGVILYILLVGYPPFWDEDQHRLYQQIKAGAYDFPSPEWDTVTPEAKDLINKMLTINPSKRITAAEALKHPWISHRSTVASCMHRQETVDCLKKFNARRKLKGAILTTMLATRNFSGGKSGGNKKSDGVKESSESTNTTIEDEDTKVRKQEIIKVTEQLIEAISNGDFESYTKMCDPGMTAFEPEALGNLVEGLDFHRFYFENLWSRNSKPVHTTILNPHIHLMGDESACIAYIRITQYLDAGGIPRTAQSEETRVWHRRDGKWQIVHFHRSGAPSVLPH
Read-out: enzyme activity
Mode: inhibitor
Concentration: 10 µM
SMILES | inhibition [%]
O=C(O)CC(O)(CC(=O)OCc1ccc(O[C@@H]2O[C@H](CO)[C@@H](O)[C@H](O)[C@H]2O)cc1)C(=O)OCc1ccc(O[C@@H]2O[C@H](CO)[C@@H](O)[C@H](O)[C@H]2O)cc1 (some centres unmarked) | 23
CC(=O)O[C@H]1CC[C@]2(C)C3=C(CC[C@H]2C1(C)C)[C@]1(C)C[C@@H](O)[C@H]([C@@H](CCC=C(C)C)C(=O)O)[C@@]1(C)CC3 | 0
NS(=O)(=O)c1cc2c(cc1Cl)NC(C(Cl)Cl)NS2(=O)=O (centres unmarked) | -9
C[C@H]1CC[C@@]2(O)C(C)(C)[C@@H]3CC[C@@]2(C)[C@H]1C3 | -4
COc1cc(C[C@@H](C)[C@@H](C)Cc2ccc(O)c(OC)c2)ccc1O | -12
CC1(S(=O)(=O)O)CC(=O)c2ccccc2C1=O (centres unmarked) | -3
CC(C)=CCc1c(O)ccc2c1O[C@H](c1ccc(O)cc1)CC2=O | -16
COc1cc2c(cc1OC)CC(=O)N(CCCN(C)C[C@H]1Cc3cc(OC)c(OC)cc31)CC2 | -4
COc1ccc2cc(CCC(C)=O)ccc2c1 | 1
OCCN1C[C@H](O)[C@@H](O)[C@H](O)[C@H]1CO | -10
CC(C)CC(=O)NCC(=O)O | 22
CC(O)CC(=O)O (centres unmarked) | 16

Sample 2
Target: MAP kinase-interacting serine/threonine-protein kinase 1 (MKNK1, Homo sapiens, UniProt Q9BUB5)
UniProt Q9BUB5, sequence (whole entry, looked up): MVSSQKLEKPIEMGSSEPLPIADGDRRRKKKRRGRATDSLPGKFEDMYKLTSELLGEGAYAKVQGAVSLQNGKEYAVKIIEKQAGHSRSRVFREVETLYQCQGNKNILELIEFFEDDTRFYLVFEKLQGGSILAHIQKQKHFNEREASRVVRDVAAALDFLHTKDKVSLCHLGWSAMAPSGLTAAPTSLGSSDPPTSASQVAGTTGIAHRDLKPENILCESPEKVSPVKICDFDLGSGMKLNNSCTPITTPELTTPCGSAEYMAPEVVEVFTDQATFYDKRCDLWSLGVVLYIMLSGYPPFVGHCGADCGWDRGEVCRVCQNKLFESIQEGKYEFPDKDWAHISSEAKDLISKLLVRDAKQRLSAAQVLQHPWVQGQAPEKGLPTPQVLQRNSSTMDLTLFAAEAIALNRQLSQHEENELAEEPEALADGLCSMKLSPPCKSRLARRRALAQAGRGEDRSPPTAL
Read-out: enzyme activity
Mode: inhibitor
Concentration: 0.5 µM
Baseline: control
Compound | remaining activity
CN(C)CCCn1cc(C2=C(c3c[nH]c4ccccc34)C(=O)NC2=O)c2ccccc21 | 81.2%
COc1cc2ncnc(Nc3ccc(OCc4ccccc4)cc3)c2cc1OC | 101%
O=c1cc(N2CCOCC2)oc2c1ccc1ccccc12 | 95%
CC(=O)O/N=C1/C(c2c(O)[nH]c3cc(Br)ccc23)=Nc2ccccc21 | 95.2%
O=C1NC(=O)/C(=C/c2ccc3nccnc3c2)S1 | 96.5%
CCOc1cc2ncnc(Nc3cccc(Br)c3)c2cc1OCC | 46%
COc1ccc(-c2cnc3c(-c4ccsc4)cnn3c2)cc1 | 87.1%
CS(=O)(=O)CCNCc1ccc(-c2ccc3ncnc(Nc4ccc(OCc5cccc(F)c5)c(Cl)c4)c3c2)o1 | 94.5%
Nc1[nH]nc2nnc(-c3c(-c4ccccc4)nn4ccccc34)cc12 | 98.5%
CC(C)[C@H](CO)Nc1nc(Nc2cccc(Cl)c2)c2ncn(C(C)C)c2n1 | 79.8%
O=C(Nc1ccc(Cl)cc1)c1ccccc1NCc1ccncc1 | 118%
CCC(=O)Nc1ccc2ncnc(Nc3cccc(Br)c3)c2c1 | 82.8%
Cn1cc(/C=C2\C(=O)Nc3ccc(S(N)(=O)=O)cc32)c2ccccc21 | 74.1%
Cc1nc(Nc2ncc(C(=O)Nc3c(C)cccc3Cl)s2)cc(N2CCN(CCO)CC2)n1 | 91.3%
Cn1cnc2cc3c(Nc4cccc(Br)c4)ncnc3cc21 | 39.9%
COc1ccc(Cl)cc1NC(=O)Nc1cc(C)nc2ccccc12 | 101%
CC(C)c1nn(-c2c(Cl)cccc2Cl)c2nc(Cc3ccc(OCCO)cc3)[nH]c(=O)c12 | 110%
C[S+]([O-])c1ccc(-c2nc(-c3ccncc3)c(-c3ccc(F)cc3)[nH]2)cc1 (centres unmarked) | 98.5%
CCN1/C(=C/C(C)=O)Sc2ccc(OC)cc21 | 119%
COc1cc2ncc(-c3ccccc3)nc2cc1OC | 104%
Cc1ccc(NC(=O)c2ccc(CN3CCN(C)CC3)cc2)cc1Nc1nccc(-c2cccnc2)n1 | 94.6%
COc1cc2ncnc(N3CCN(C(=O)Nc4ccc(Oc5ccccc5)cc4)CC3)c2cc1OC | 94.9%

Sample 3
Target: DNA polymerase theta, ATPase domain (POLQ, Homo sapiens, UniProt O75417)
UniProt O75417, sequence (whole entry, unmodified, looked up): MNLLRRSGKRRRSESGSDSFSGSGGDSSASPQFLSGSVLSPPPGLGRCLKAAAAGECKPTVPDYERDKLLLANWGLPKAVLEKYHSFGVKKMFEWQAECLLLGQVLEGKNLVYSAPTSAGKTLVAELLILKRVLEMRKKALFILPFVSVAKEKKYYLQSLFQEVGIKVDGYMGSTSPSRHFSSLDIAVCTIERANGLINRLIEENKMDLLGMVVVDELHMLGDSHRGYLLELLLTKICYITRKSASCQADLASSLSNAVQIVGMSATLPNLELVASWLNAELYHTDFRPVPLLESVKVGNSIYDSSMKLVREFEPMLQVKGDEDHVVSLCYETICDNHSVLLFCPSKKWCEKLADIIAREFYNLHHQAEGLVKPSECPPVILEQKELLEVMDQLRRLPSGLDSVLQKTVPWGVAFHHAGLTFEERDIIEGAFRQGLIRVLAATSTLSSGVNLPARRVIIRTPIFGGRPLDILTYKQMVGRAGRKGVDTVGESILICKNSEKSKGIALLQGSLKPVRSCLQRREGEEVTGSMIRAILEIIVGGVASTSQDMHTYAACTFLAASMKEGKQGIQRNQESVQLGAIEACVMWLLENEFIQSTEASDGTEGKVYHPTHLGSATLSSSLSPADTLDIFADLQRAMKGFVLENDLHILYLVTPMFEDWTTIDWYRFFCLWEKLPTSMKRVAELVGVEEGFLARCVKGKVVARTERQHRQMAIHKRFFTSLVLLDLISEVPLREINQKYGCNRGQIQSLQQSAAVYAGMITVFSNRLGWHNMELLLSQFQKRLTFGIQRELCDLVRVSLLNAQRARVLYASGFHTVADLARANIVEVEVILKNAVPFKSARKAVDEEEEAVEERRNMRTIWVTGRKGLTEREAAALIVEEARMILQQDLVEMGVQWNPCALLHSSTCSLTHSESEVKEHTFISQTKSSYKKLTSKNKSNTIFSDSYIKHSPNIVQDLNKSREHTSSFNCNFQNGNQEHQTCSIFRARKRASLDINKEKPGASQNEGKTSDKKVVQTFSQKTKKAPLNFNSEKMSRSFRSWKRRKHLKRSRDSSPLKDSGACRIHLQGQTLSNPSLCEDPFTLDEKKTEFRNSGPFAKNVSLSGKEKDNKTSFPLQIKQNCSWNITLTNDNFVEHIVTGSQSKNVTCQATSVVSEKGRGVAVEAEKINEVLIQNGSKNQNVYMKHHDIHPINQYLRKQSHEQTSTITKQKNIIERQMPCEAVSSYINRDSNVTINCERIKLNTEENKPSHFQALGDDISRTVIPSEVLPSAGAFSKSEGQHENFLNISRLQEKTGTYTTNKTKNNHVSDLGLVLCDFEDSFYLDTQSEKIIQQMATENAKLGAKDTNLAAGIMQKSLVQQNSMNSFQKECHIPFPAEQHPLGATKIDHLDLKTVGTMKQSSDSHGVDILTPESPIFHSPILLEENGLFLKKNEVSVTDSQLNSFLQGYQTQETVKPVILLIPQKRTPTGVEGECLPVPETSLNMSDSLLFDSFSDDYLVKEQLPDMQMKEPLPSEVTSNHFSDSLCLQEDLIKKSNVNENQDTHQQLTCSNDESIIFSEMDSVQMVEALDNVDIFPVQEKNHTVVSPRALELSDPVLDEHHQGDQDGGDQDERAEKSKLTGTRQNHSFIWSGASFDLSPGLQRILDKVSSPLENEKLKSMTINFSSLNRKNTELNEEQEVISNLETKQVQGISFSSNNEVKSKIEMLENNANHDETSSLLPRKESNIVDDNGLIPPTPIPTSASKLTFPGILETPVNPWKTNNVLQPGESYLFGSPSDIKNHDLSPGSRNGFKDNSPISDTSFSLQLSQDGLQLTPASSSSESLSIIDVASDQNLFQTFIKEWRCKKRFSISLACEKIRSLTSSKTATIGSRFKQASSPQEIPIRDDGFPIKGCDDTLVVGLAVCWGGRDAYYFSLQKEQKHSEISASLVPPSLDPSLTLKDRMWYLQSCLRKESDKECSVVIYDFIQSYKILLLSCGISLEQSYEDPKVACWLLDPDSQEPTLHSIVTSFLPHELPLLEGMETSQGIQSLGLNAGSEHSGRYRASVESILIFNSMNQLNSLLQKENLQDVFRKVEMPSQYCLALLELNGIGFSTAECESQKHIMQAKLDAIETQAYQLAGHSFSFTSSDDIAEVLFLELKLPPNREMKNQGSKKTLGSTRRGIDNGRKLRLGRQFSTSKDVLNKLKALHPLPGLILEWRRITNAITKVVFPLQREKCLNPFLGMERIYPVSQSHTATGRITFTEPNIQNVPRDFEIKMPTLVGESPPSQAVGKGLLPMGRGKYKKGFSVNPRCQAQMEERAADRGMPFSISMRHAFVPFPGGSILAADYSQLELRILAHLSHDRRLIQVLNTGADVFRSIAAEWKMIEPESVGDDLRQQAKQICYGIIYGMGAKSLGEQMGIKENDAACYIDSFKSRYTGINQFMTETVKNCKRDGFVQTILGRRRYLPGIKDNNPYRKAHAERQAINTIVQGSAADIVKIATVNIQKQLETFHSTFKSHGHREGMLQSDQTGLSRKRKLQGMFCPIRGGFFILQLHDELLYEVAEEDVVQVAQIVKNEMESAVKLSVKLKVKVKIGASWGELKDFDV
Read-out: enzyme activity
Mode: inhibitor
Concentration: 77 µM
Baseline: untreated
SMILES | remaining activity
OCc1cc(C(O)CNCCCCCCOCCCCc2ccccc2)ccc1O (centres unmarked) | 99.9%
CCCC(=O)Oc1ccc2[nH]c(C(=O)c3cc4ccccc4[nH]3)cc2c1 | 117%
CC1(C)S[C@@H]2[C@H](NC(=O)[C@H](C(=O)O)c3ccsc3)C(=O)N2[C@H]1C(=O)O | 102% and 105%
N[C@@H](Cc1c[nH]c2ccc(O)cc12)C(=O)O | 93.8%
Cn1cnc2c1c(=O)[nH]c(=O)n2C | 93.4%
CC(=O)[C@H]1CC[C@H]2[C@@H]3CCC4=CC(=O)CC[C@]4(C)[C@H]3CC[C@]12C | 102% and 97.1%
O=C(O)[C@]1(O)C[C@@H](O)[C@@H](O)[C@H](O)C1 | 93.2%
Nc1nccc(Oc2ccc(NC(=O)c3c[nH]cc(-c4ccc(F)cc4)c3=O)cc2F)c1Cl | 97.9%
O=C(c1cn(Cc2cncn2Cc2ccc(Br)cc2)cc1-c1cccc2ccccc12)N1CCOCC1 | 102%
COC(=O)[C@H](Cc1ccccc1)NC(=O)[C@@H](N)CC(=O)O | 75.5%
CCOc1ccn(-c2ccc(F)cc2)c(=O)c1C(=O)Nc1ccc(Oc2ccnc(N)c2Cl)c(F)c1 | 99.5%
COC(=O)CCc1ccc(OCC(O)CNC(C)C)cc1 (centres unmarked) | 103%

Sample 4
Compound: CS(=O)(=O)N1CCCC(NC(=O)[C@H](CCC2CCCCC2)NC(=O)c2ccc(CNC(=O)c3cnc4ccccn34)cc2)C1 (some centres unmarked)
Read-out: cell-free assay
Method: competition with immobilised ligand
Concentration: 0.1 µM
target | remaining binding [%]
PLK4 (Homo sapiens, UniProt O00444) | 100
Cyclin-dependent kinase 4, with cyclin D3 (CDK4, Homo sapiens, UniProt P11802) | 100
PRKCH (Homo sapiens, UniProt P24723) | 95
IKBKE (Homo sapiens, UniProt Q14164) | 100
FGFR3 (Homo sapiens, UniProt P22607) | 100
CSNK1A1L (Homo sapiens, UniProt Q8N752) | 99
FLT3 (Homo sapiens, UniProt P36888, D835V/ITD) | 86
EGFR (Homo sapiens, UniProt P00533, A750P/del747-749) | 90
MAP3K4 (Homo sapiens, UniProt Q9Y6R4) | 91
PAK3 (Homo sapiens, UniProt O75914) | 100
MAST1 (Homo sapiens, UniProt Q9Y2H9) | 94
TESK1 (Homo sapiens, UniProt Q15569) | 93
FLT3 (Homo sapiens, UniProt P36888) | 82
FGFR1 (Homo sapiens, UniProt P11362) | 100
CAMK2G (Homo sapiens, UniProt Q13555) | 86
RIOK1 (Homo sapiens, UniProt Q9BRS2) | 73
Ribosomal protein S6 kinase alpha-3, C-terminal kinase domain (RPS6KA3, Homo sapiens, UniProt P51812) | 100
STK32C (Homo sapiens, UniProt Q86UX6) | 85
MYLK2 (Homo sapiens, UniProt Q9H1R3) | 90
PDGFRA (Homo sapiens, UniProt P16234) | 99
EGFR (Homo sapiens, UniProt P00533, T790M) | 100
TTK (Homo sapiens, UniProt P33981) | 91

A few entries again (sample 4):
target | remaining binding [%]
IKBKE (Homo sapiens, UniProt Q14164) | 100
FGFR1 (Homo sapiens, UniProt P11362) | 100
RIOK1 (Homo sapiens, UniProt Q9BRS2) | 73
PDGFRA (Homo sapiens, UniProt P16234) | 99
FGFR3 (Homo sapiens, UniProt P22607) | 100
EGFR (Homo sapiens, UniProt P00533, T790M) | 100
TTK (Homo sapiens, UniProt P33981) | 91
